Assay results pooled from the literature.
Protocols differ between the studies behind these lines. Numbers after ± are the reported error.
Chain of UniProt Q16539 (whole entry, looked up): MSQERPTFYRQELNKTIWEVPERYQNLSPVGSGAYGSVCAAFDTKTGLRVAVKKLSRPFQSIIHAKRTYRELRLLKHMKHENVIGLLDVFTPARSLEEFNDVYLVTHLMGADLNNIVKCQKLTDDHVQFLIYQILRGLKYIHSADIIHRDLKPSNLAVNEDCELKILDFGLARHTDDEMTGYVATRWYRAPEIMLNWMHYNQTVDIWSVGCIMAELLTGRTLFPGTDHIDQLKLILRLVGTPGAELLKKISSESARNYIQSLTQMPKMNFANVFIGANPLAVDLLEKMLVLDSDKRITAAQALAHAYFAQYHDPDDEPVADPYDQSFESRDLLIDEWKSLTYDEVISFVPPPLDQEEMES
Chain of UniProt P42574 (whole entry, looked up): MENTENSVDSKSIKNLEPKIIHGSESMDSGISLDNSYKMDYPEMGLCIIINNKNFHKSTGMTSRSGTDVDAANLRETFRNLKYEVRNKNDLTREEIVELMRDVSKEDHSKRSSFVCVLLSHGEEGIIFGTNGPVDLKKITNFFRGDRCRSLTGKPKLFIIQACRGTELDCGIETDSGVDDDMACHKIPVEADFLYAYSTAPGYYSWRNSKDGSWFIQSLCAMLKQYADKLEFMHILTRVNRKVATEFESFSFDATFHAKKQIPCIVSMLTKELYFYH

| Structure (SMILES) | tested on | assay | test system | setting | scale | measurement | result |
| --- | --- | --- | --- | --- | --- | --- | --- |
| Fc1ccc(C2=CCNCC2)cc1 | Salmonella typhimurium | SOS/umu test | TA1535/pSK1002 | 0.25 mg/mL, 4 h, without S9, full range |  | survival | 93.8% |
| Cc1cc(C(=O)NC(C)(C)COc2cccc3c2C(N)=NS(=O)(=O)N3)cc(C)n1 | Escherichia coli | Ames test, confirmatory | WP2 uvrA | 5000 µg/plate, together with: rat liver S9 | relative to: solvent control | revertant ratio | 1 |
| COc1cc2c(Oc3ccc4[nH]c(C)cc4c3F)ccnc2cc1OCC1(N)CC1 |  |  | paediatric recurrent refractory sarcoma | concentration not given, whole group |  | grade 3 Leukopenia | 0% |
| [Cl-].[Cl-].[Pt+2].[Ru+2].c1ccc(-c2nccnc2-c2ccccn2)nc1.c1cnc2c(c1)ccc1cccnc12.c1cnc2c(c1)ccc1cccnc12 | Danio rerio |  | embryos | 90 µM, 72 h |  | hatching rate | 0% |
| CC[C@H](C)[C@@H]1NC(=O)[C@@H]2CCCN2C(=O)[C@H](CC(C)C)NC(=O)[C@H](CC(C)C)NC(=O)CNC(=O)[C@@H](NC(=O)[C@@H](NC(=O)[C@H](CC(=O)O)NC(=O)CNC(=O)[C@@H](NC(=O)[C@H](C)NC(=O)CNC(=O)[C@H](CCCCN)NC(=O)[C@H](CC(C)C)NC(=O)[C@H](CC(C)C)NC(=O)[C@H](CCCCN)NC(=O)CNC(=O)[C@@H](NC(=O)[C@@H](N)CC(C)C)C(C)C)C(C)C)C(C)C)CSSC[C@@H](C(=O)O)NC1=O |  | RNA-seq, measured: novel.407 mRNA | mouse traumatic brain injury, frontal cortex and hippocampus | dose not given | relative to: TBI plus compound vs TBI | log2 fold change | 1.32 |
| C[C@H]1CN(c2n[nH]c3nc(N[C@H]4CC[C@H](NS(=O)(=O)CCC(F)(F)F)CC4)ncc23)CCO1 | MAPK14 (Homo sapiens, UniProt Q16539) | Kinobeads competition | HEK293, K562, placenta lysate | 0.16 µM, unit not given | relative to: vehicle | remaining binding | 0.87 |
| COc1cc(Nc2ncc(F)c(Nc3ccc4c(n3)NC(=O)C(C)(C)O4)n2)cc(OC)c1OC | Caspase-3 (CASP3, Homo sapiens, UniProt P42574) |  |  |  |  | IC50 | > 10 µM |
| COc1cccc(-c2n[nH]c(SCc3ccccn3)n2)c1OC | Salmonella typhimurium | Ames test, plate incorporation | TA1537 | 2.0 mg/plate, with rat liver S9 |  | revertant colonies per plate | 4 |
| CCOC(=O)C1=C(CN2CCC[C@H]2C(=O)Nc2cccc(B(O)O)c2)NC(c2nccs2)=N[C@H]1c1ccc(F)cc1Br | hepatitis B virus |  | HepDES19 |  | relative to: CC50 over EC50 | selectivity index | 17 |
| [Cl-].[Cl-].[Pt+2].[Ru+2].c1ccc(-c2nc3ccccc3nc2-c2ccccn2)nc1.c1cnc2c(c1)ccc1cccnc12.c1cnc2c(c1)ccc1cccnc12 | Danio rerio |  | embryos | 60 µM, 96 h |  | survival rate | 63.3 ± 3.4% |
| CCOC(=O)C1=C(CN2CCCC2C(=O)Nc2ccc(B(O)O)cc2)NC(c2nccs2)=NC1c1ccc(F)cc1Br (stereo not shown) | hepatitis B virus |  | HepDES19 |  | relative to: CC50 over EC50 | selectivity index | 156 |
| O=[N+]([O-])c1ccc(N2CCC(NCCC(O)c3ccc(F)c4ccccc34)CC2)c(C(F)(F)F)c1 (stereo not shown) | Salmonella typhimurium | genotoxicity, SOS/umu test | TA1535/pSK1002 | 0.004 mg/mL, 4 h, with S9, lower range |  | induction factor | 0.7 |
| CC(=O)N1CCC(C(=O)N2CCN3C(=O)c4cc(-c5ccccc5)ccc4NC(=O)C3C2)CC1 (stereo not shown) | Salmonella typhimurium |  | TA98 | 1581 µg/plate, together with: rat liver S9 |  | revertants per plate | 37 |

Repeated from above:
| Structure (SMILES) | tested on | assay | test system | setting | scale | measurement | result |
| --- | --- | --- | --- | --- | --- | --- | --- |
| COc1cc(Nc2ncc(F)c(Nc3ccc4c(n3)NC(=O)C(C)(C)O4)n2)cc(OC)c1OC | Caspase-3 (CASP3, Homo sapiens, UniProt P42574) |  |  |  |  | IC50 | > 10 µM |
